# Measurements collected from several papers.
# Numbered parts are unrelated; each lists some results of a single study. Numbers after ± are the reported error.

# Block 1
# Target: Replicase polyprotein 1ab, nsp13 helicase (rep, Severe acute respiratory syndrome coronavirus 2, UniProt P0DTD1)
# Mode: inhibitor
# Tested at: 20 µM
SMILES,inhibition [%]
COc1cccc(OCCCN)c1-c1cc(Nc2cnc(C#N)cn2)n[nH]1,6.19
COc1cc(Oc2ccnc3cc(OC)c(OC)cc23)ccc1NC(=O)NC(C)c1nccs1 (centres unmarked),7.57
CC[C@H]1OC(=O)[C@H](C)[C@@H](O[C@H]2C[C@@](C)(OC)[C@@H](O)[C@H](C)O2)[C@H](C)[C@@H](O[C@@H]2O[C@H](C)C[C@H](N(C)C)[C@H]2O)[C@](C)(O)C[C@@H](C)[C@@H]2N[C@@H](COCCOC)O[C@H]([C@H]2C)[C@]1(C)O,-0.35
C[N@+]1(CC2CC2)CC[C@]23c4c5ccc(O)c4O[C@H]2C(=O)CC[C@@]3(O)[C@H]1C5,3.09
CN1C(=O)C(N2CCCCC2)S/C1=C\C(=O)O (centres unmarked),55.3
Cc1cc2cc3c(C)cc(=O)oc3c(C)c2o1,1.92
CN(C)C(=O)N[C@H]1CC[C@H](CCN2CCN(c3cccc(Cl)c3Cl)CC2)CC1,8.77
CCCCCCCCCCC[C@@H](C[C@@H]1OC(=O)[C@H]1CCCCCC)OC(=O)[C@H](CC(C)C)NC=O,4.67
O=C(O)/C=C/c1ccc(Cn2ccnc2)cc1,0.1
O=C(CC12CC3CC(CC(C3)C1)C2)Nc1cccc2nc(NCCNCCO)ccc12,11.1
Nc1nc(=O)n([C@@H]2CS[C@H](CO)O2)cc1F,2.1
N[C@@H](Cc1cc(I)c(Oc2cc(I)c(O)c(I)c2)c(I)c1)C(=O)O,1.08
C#C[C@]1(O)CC[C@H]2[C@@H]3CCC4=CCCC[C@@H]4[C@H]3CC[C@@]21C,8.04
COC(=O)C1=CO[C@@H](O[C@@H]2O[C@H](CO)[C@@H](O)[C@H](O)[C@H]2O)[C@@H]2C(CO)=CC[C@H]12,2.12
CCN1CCCC1=O,-8.65
CN1CCN(c2ccc3ccccc3n2)CC1,2.77
CN(C)c1cccc(-c2c3c(=O)n(-c4ccccc4Cl)[nH]c3cc(=O)n2C)c1,-3.63
C[C@@]1(CO)[C@H](O)CC[C@@]2(C)[C@H]1CC[C@H]1C[C@@H]3C[C@@]12CC[C@]3(O)CO,0.47
CCCCCCCC(=O)OCC(O)CO (centres unmarked),-3.41
C[C@]1(c2nc3c(C(N)=O)cccc3[nH]2)CCCN1,3.49
COc1cc2c(CCNC(C)=O)c[nH]c2cc1Cl,4.35
O=C(O)CNC(=O)c1nc(Cl)c2ccccc2c1O,0.48
C[C@@H]1CCO[C@H]2Cn3cc(C(=O)NCc4ccc(F)cc4F)c(=O)c(O)c3C(=O)N12,-1.54
CN1C(CSCC(F)(F)F)Nc2cc(Cl)c(S(N)(=O)=O)cc2S1(=O)=O (centres unmarked),1.21
O=C1[C@@H]2[C@H]3CC[C@H](C3)[C@@H]2C(=O)N1CCCCN1CCN(c2ncccn2)CC1,4.24

# Block 2
# Cell line: HEK-293T/ACE2
# Tested at: 10 µM
# Time: 16 h
# Baseline: vehicle
SMILES,viability [%]
COc1cc(C(C)=O)ccc1OCCCN1CCC(c2noc3cc(F)ccc23)CC1,102
CC(C)NCC(O)COc1cccc2[nH]ccc12 (centres unmarked),102
COC1=CC(=O)C[C@@H](C)[C@]12Oc1c(Cl)c(OC)cc(OC)c1C2=O,100

# Single results of other studies
# rep main protease: Replicase polyprotein 1ab, main protease (rep, Severe acute respiratory syndrome coronavirus 2, UniProt P0DTD1)
Compound,tested on,assay,system,setting,quantity,value
O=C(N1CCC2(CC1)CC(CNS(=O)(=O)C1CC1)CCO2)C1(c2ccccc2)CCCC1 (centres unmarked),Venezuelan equine encephalitis virus,viral replication,,,EC50,> 39.8 µM
O=C(CCc1cncc2ccccc12)N1CCc2cccc(-c3cn(CCO)nn3)c21,rep main protease,"enzyme activity, inhibitor",,"5 µM, run 1",inhibition,18.9%
NCC1CCOC2(CCN(C(=O)C3(c4ccccc4)CCCC3)CC2)C1 (centres unmarked),Venezuelan equine encephalitis virus,viral replication,,,EC50,> 39.8 µM
CCN(CC)CCCNC(=O)c1ccc(-c2nc(CN3CCc4ccccc43)c(C)o2)cc1,SARS-CoV-2,cytopathic effect,USA_WA1/2020,"round 2, 5-point",maximum response,116%
CC(C)(CC(=O)N1CCCC1)NCC(=O)N1C[C@@H](F)C[C@H]1C#N,rep main protease,"reporter gene (Gaussia luciferase), inhibitor",,20 µM,inhibition,0.0227%
Cc1c(OCC(F)(F)F)ccnc1C[S+]([O-])c1nc2ccccc2[nH]1 (centres unmarked),rep main protease,"enzyme activity, inhibitor",,with DTT,IC50,> 20 µM
O=C(/C=C/c1ccc(O)c(O)c1/C=C/c1ccc(O)c(O)c1)O[C@H](Cc1ccc(O)c(O)c1)C(=O)O,SARS-CoV-2,cytopathic effect,Vero E6,"25 µM, first run",inhibition,0%
CCCCNC(=O)C1CCCN(Cc2nc(-c3ccc(Cl)cc3)oc2C)C1 (centres unmarked),SARS-CoV-2,cytopathic effect,USA_WA1/2020,"round 2, 5-point",maximum response,48.2%
COc1cc(C(=O)OCCCN2CCCN(CCCOC(=O)c3cc(OC)c(OC)c(OC)c3)CC2)cc(OC)c1OC,SARS-CoV-2,"viral replication, GFP plate reader screen",,cell-based,EC50,> 100 µM
Cn1cnc(Cn2c(=O)[nH]/c(=N\c3cc4cn(C)nc4cc3Cl)n(Cc3cc(F)c(F)cc3F)c2=O)n1,,,"human, moderate renal impairment, plasma","oral, 375 mg single dose",Vz/F,19.9 L
Cc1nc(C(=O)N2CC[C@@H]([C@@H]3CCCN3C(=O)c3cc(O)ccc3Cl)C2)cc(=O)[nH]1,rep main protease,"enzyme activity, inhibitor",,"5 µM, mean of runs",inhibition,10.9%
Cc1cn([C@H]2C=C[C@@H](COP(=O)(O)OP(=O)(O)OP(=O)(O)O)O2)c(=O)[nH]c1=O,"Gag-Pol polyprotein, reverse transcriptase (gag-pol, Human immunodeficiency virus type 1 group M subtype B, UniProt P04585, K652R)",inhibitor,HIV-1,,IC50,16.7 ± 1.34 µM
CC(C)=CCc1c(O)ccc(C(=O)/C=C/c2ccc(O)cc2)c1O,SARS-CoV-2,cytopathic effect,Vero E6,"50 µM, replicate run",inhibition,50%
CCOC(=O)CN1CCN(CCCOc2c3c(c(-c4ccc5c(c4)OCO5)c4cc(OC)c(OC)cc24)C(=O)OC3)CC1,VSV pseudotyped with Marburg virus GP,"viral entry, refers to: GFP",,,IC50,0.0816 ± 0.0287 µM
CCC(C)C(NC(=O)C1N2C(=O)c3ccccc3C2SC1(C)C)C(=O)NC(CO)C(C)C (centres unmarked),SARS-CoV-2,"plaque formation, plaque reduction",Vero E6,72 h,EC50,3 ± 1.6 µM
Nc1ncnc2c([C@@H]3N[C@H](CO)[C@@H](O)[C@H]3O)c[nH]c12,Chikungunya virus,viral replication,"HeLa, AF 15561",0.8 µM,inhibition,16.6%
COC(=O)N[C@H](C(=O)N[C@@H](Cc1ccccc1)[C@@H](O)CN(Cc1ccc(-c2ccccn2)cc1)NC(=O)[C@@H](NC(=O)OC)C(C)(C)C)C(C)(C)C.O=S(=O)(O)O,rep main protease,"reporter gene (Gaussia luciferase), inhibitor",,20 µM,inhibition,2.15%
Nc1ncnc2c1ncn2[C@@H]1O[C@H](CSCC[C@H](N)C(=O)O)[C@@H](O)[C@H]1O,SARS-CoV-2,"plaque formation, plaque reduction",Vero E6,72 h,EC50,> 50 µM
O=C1NC2CCCCN2C12CCN(CCCN1c3ccccc3CCc3ccc(Cl)cc31)CC2 (centres unmarked),SARS-CoV-2,"viral replication, GFP plate reader screen",BetaCov/Belgium/GHB-03021/2020,cell-based,EC50,7.41 µM
CCc1cc(=O)n2c(=O)/c(=C/c3ccc(-c4ccccc4)cc3)sc2n1,Chikungunya virus,"virus-induced cell death, MTS/PMS","BGM, Indian Ocean 899",20 µg/mL,inhibition,5%
CN1CCN(C2Cc3ccccc3Sc3ccc(Cl)cc32)CC1.O=C(O)/C=C\C(=O)O (centres unmarked),HeLa,Ebola VLP entry,,,maximal inhibition,99%
N=C(N)Nc1ccc(C(=O)Oc2ccc3cc(C(=N)N)ccc3c2)cc1,VSVΔG pseudotyped with SARS-CoV-2 S,pseudovirus infection,Delta,tested range 0.3125 to 40 µM,IC50,0.94 µM

# For quick reference, copied from above (block 1):
SMILES,inhibition [%]
CN(C)c1cccc(-c2c3c(=O)n(-c4ccccc4Cl)[nH]c3cc(=O)n2C)c1,-3.63
C[C@@]1(CO)[C@H](O)CC[C@@]2(C)[C@H]1CC[C@H]1C[C@@H]3C[C@@]12CC[C@]3(O)CO,0.47
CCCCCCCC(=O)OCC(O)CO (centres unmarked),-3.41
C[C@]1(c2nc3c(C(N)=O)cccc3[nH]2)CCCN1,3.49
COc1cc2c(CCNC(C)=O)c[nH]c2cc1Cl,4.35
O=C(O)CNC(=O)c1nc(Cl)c2ccccc2c1O,0.48
C[C@@H]1CCO[C@H]2Cn3cc(C(=O)NCc4ccc(F)cc4F)c(=O)c(O)c3C(=O)N12,-1.54
CN1C(CSCC(F)(F)F)Nc2cc(Cl)c(S(N)(=O)=O)cc2S1(=O)=O (centres unmarked),1.21
